Assay results collected from several papers.
Every numbered part comes from another study and shows a few of its results, in no order.

Block 1
Cell line: HEK-293T/ACE2
Concentration: 10 µM
Time: 16 h
Relative to: vehicle
Compound | viability
CC[C@H]1OC(=O)[C@H](C)[C@@H](O[C@H]2C[C@@](C)(OC)[C@@H](O)[C@H](C)O2)[C@H](C)[C@@H](O[C@@H]2O[C@H](C)C[C@H](N(C)C)[C@H]2O)[C@](C)(O)C[C@@H](C)CN(C)[C@H](C)[C@@H](O)[C@]1(C)O | 100%
Cc1nc(-c2ccc(OCC(C)C)c(C#N)c2)sc1C(=O)O | 99.4%
CC(C)C(=O)Oc1ccc(CO)cc1[C@H](CCN(C(C)C)C(C)C)c1ccccc1 | 101%

Block 2
Target: Fragile X messenger ribonucleoprotein 1, C-terminal low-complexity region (Fmr1, Mus musculus, UniProt P35922)
Technique: RNA Bind-n-Seq
Molecule type: RNA
Sample: in vitro
Concentration: 200 nM
Setting: whole 134-nt RNA, ends assumed
Together with: 150 mM KCl
Relative to: input library
Reading: higher = stronger binding
Shared flanks, not repeated: GGGAGUUCUACAGUCCGACGAUC … UGGAAUUCUCGGGUGUCAAGG
Strand | log2 enrichment
UUACAGAUGUAGAGCUAAAACGACUGAAGGAUGCUUUCAAGAGGACCUGUGGACUCUCAUAUUACAUGGGCCAGCACUGCUUCAUCCGGG | 0.0846
CAAGUCCUGUGCUACACAUCGUAUGUACCGAAUCGGGAGGGAAAAAGGGAAAGGGAAAGUAUUAUGUUACGCCGUUCGGAUCUGCACUUC | 0.621
AAGUCCUGUGCUACACAUCGUAUGUACCGAAUCGGGUUUGGGUGGGAAAAAAAGGGAAAGUAUUAUGUUACGCCGUUCGGAUCUGCACUU | 0.537
UGGGAGGUGGAUUUUGUUUAUUUUUUUAGCUCAUUUCCAGGGGUGGGAAUUUUUUUUUAAUAGGUGUCAUGAAUAAAGUUGUUUUUGAAA | 0.107
CUCAAGUCCUGUGCUACACAUCGUAUGUACCGAAUCGGGAGGGAAAGGGUGGGAAAGUAUUAUGUUACGCCGUUCGGAUCUGCACUUCCA | 1.21
GCAGGAAGUAAAAACAAAUGGAAAUGAUUCGGAUAGUGGCAGGGGUGGGGGUUGCUAAGGAAAGGGUGGGAUGGGAGUGGGUAAAGAGUU | 0.515
UGGCCCUGGUGGCAUGCGGGGAGGAAGAGGUGGCCUCAUGGAUCGUGGUGGUCCCGGUGGAAUGUUCAGAGGUGACCGUGGUGGAGACAG | -0.0267
UAUCAGGAGGGCAGACUUCAAAAGCUACUAAAAAUGAACGGCCCUGAAGAUCUUCCCAAGUCCUAUGACUAUGACCUUAUCAUCAUUGGA | -1.23

Block 3
Target: Replicase polyprotein 1ab, main protease (rep, Severe acute respiratory syndrome coronavirus 2, UniProt P0DTD1)
Effect on: enzyme activity
Action: inhibitor
Concentration: 20 µM
Setting: hit confirmation, no DTT
SMILES | inhibition [%]
CC(C)N(CCC(=O)c1ccc2ccccc2c1)Cc1ccccc1 | 78.2
CN(CCCN1c2ccccc2CCc2ccccc21)CC(=O)c1ccc(Cl)cc1 | 68.1
Sc1nnnn1-c1ccccc1 | 110
CNS(=O)(=O)C[C@H]1CC[C@H](N(C)c2ncnc3[nH]ccc23)CC1 | 52.5

Block 4
Target: Replicase polyprotein 1ab, nsp13 helicase (rep, Severe acute respiratory syndrome coronavirus 2, UniProt P0DTD1)
Action: inhibitor
Concentration: 20 µM
Structure (SMILES) | inhibition
CN(C)CCN(C)CCc1ccc(Cl)c(Cl)c1 | 0.99%
COc1cc(N2CCC(N)CC2)ccc1Nc1ncc(Cl)c(-c2c[nH]c3ccccc23)n1 | 56.2%
CC(C)(C)NC(=O)[C@@H]1CN(Cc2cccnc2)CCN1C[C@@H](O)C[C@@H](Cc1ccccc1)C(=O)N[C@H]1c2ccccc2C[C@H]1O | -2.54%
COC(=O)CN1CN(c2ccccc2)C2(CCN(Cc3cccc4ccccc34)CC2)C1=O | 3.82%
N#C/C(=C\c1ccc(O)c(O)c1)C(=O)NCc1ccccc1 | 27.4%
CC(=Nc1ccccc1N)c1c(C)cc(=O)n(O)c1O | -2.07%
c1ccc([C@@H]2C[C@H]2NC2CCNCC2)cc1 | -0.03%
c1cc(Cc2cnc[nH]2)ccn1 | 2.12%
O=C(O)c1cc(O)c2c(c1)[C@H]([C@H]1c3cc(C(=O)O)cc(O)c3C(=O)c3c(O[C@@H]4O[C@H](CO)[C@@H](O)[C@H](O)[C@H]4O)cccc31)c1cccc(O[C@@H]3O[C@H](CO)[C@@H](O)[C@H](O)[C@H]3O)c1C2=O | 12%
Nc1ncnc2c1ncn2[C@@H]1O[C@H](CO)[C@@H](O)[C@@H]1O | 3.74%
Cc1oc(=O)oc1CN1CCN(c2cc3c(cc2F)c(=O)c(C(=O)O)c2n3C(C)S2)CC1 (centres unmarked) | 1.95%

Repeated from above (block 4):
Structure (SMILES) | inhibition
CC(=Nc1ccccc1N)c1c(C)cc(=O)n(O)c1O | -2.07%
c1ccc([C@@H]2C[C@H]2NC2CCNCC2)cc1 | -0.03%
c1cc(Cc2cnc[nH]2)ccn1 | 2.12%
O=C(O)c1cc(O)c2c(c1)[C@H]([C@H]1c3cc(C(=O)O)cc(O)c3C(=O)c3c(O[C@@H]4O[C@H](CO)[C@@H](O)[C@H](O)[C@H]4O)cccc31)c1cccc(O[C@@H]3O[C@H](CO)[C@@H](O)[C@H](O)[C@H]3O)c1C2=O | 12%
